Published values of several laboratories.
Each line is one published result; not all experiments were run side by side. ± gives the spread as reported.
Method: steady-state kinetics
B1: alanine racemase H125A (Geobacillus stearothermophilus, UniProt P10724); chain MNDFHRDTWAEVDLDAIYDNVENLRRLLPDDTHIMAVVKANAYGHGDVQVARTALEAGASRLAVAFLDEALALREKGIEAPILVLGASRPADAALAAQQRIALTVFRSDWLEEASALYSGPFPIAFHLKMDTGMGRLGVKDEEETKRIVALIERHPHFVLEGLYTHFATADEVNTDYFSYQYTRFLHMLEWLPSRPPLVHCANSAASLRFPDRTFNMVRFGIAMYGLAPSPGIKPLLPYPLKEAFSLHSRLVHVKKLQPGEKVSYGATYTAQTEEWIGTIPIGYADGWLRRLQHFHVLVDGQKAPIVGRICMDQCMIRLPGPLPVGTKVTLIGRQGDEVISIDDVARHLETINYEVPCTISYRVPRIFFRHKRIMEVRNAIGRGESSA
B2: enzyme (Levilactobacillus brevis, UniProt Q03Q85); chain MKVTVVGCTHAGTFAIKQILAEHPDAEVTVYERNDVISFLSCGIALYLGGKVADPQGLFYSSPEELQKLGANVQMNHNVLAIDPDQKTVTVEDLTNHAQTTESYDKLVMTSGSWPIVPKIPGIDSDRVKLCKNWAHAQALIEDAKEAKRITVIGAGYIGAELAEAYSTTGHDVTLIDAMARVMPKYFDADFTDVIEQDYRDHGVQLALGETVESFTDSATGLTIKTDKNSYETDLAILCIGFRPNTDLLKGKVDMAPNGAIITDDYMRSSNPDIFAAGDSAAVHYNPTHQNAYIPLATNAVRQGILVGKNLVKPTVKYMGTQSSSGLALYDRTIVSTGLTLAAAKQQGLNAEQVIVEDNYRPEFMPSTEPVLMSLVFDPDTHRILGGALMSKYDVSQSANTLSVCIQNENTIDDLAMVDMLFQPNFDRPFNYLNILAQAAQAKVAQSVNA
B3: sacB S173T (Priestia megaterium, UniProt D5DC07); chain KGNDSKDFNNSYGISHITRDNMVKIPQQQNSDQFKVPAFDESTIKNIASAKGKNASGNTIDLDVWDSWPLQNADGTVATYHGYQIVFALAGDPKDSNDTSVYLFYKKAGDKSIDSWKNAGRVFKDSDKFVPNDPHLKNQTQEWTGSGTLTKDGKVRLFYTDYSGKQYGKQTLTTAQVNMSQPNDNTLKVDGVEDYKSIFDGDGKIYQTVQQFIDEGGYDTGDNHTLRDPHYIEDNGHKYLVFEANTGTEDGYQGEDSLYNRAYYGGNNPFFQSEKKKLLEGSNKEKASLANGALGIIELNDDYTLKKVMKPLITSNTVTDEIERANIFKKDGKWYLFTDSRGSKMTIDGIGQDDVYMLGYVSNTLTGKYKPLNDTGLVLHMDLDPNDKTFTYSHFAVPQTKGDNVVITSYMTNRGFYEDNHSTFAPSFLVNIDGSKTSVVKDRVLEQGQLTVDED
B4: nicotinamidase (Streptococcus pneumoniae, UniProt A0A0H2UR34); chain MTKALISIDYTEDFVADSGKLTAGAPAQAISDAISKVTRLAFERGDYIFFTIDAHEENDCFHPESKLFPPHNLIGTSGRNLYGDLGIFYQEHGSDSRVFWMDKRHYSAFSGTDLDIRLRERRVSTVILTGVLTDICVLHTAIDAYNLGYDIEIVKPAVASIWPENHQFALGHFKNTLGAKLVDENLNELFE
B5: ybiA (Escherichia coli, UniProt P30176); chain MPVRAQRIQHVMQDTIINFYSTSDDYGDFSNFAAWPIKVDGKTWPTSEHYFQAQKFLDEKYREEIRRVSSPMVAARMGRDRSKPLRKNWESVKEQVMRKALRAKFEQHAELRALLLATAPAKLVEHTENDAYWGDGGHGKGKNRLGYLLMELREQLAIEK
B6: enzyme (Triticum aestivum, UniProt A0A6J4BJN3); chain MPATENAAGEAWDRRRELQAFDDTKAGVKGLVDAGVTALPPIFRHSPESLEGITSSNHDAAAIPTVDLSAARREDTVALVRRAAATVGFFQVVNHGVPAELMAGMLEAVRRFNEGPAEAKQAIYSRDQARKVRFASNFDLFSSAAANWRDTLFFHLAPDPAPSQDLPEAVRDVVTEYGKAVTKVALSVLELLSESLGLSSDHLRDMGCAENLNAVCQYYPPCPEPYLTWGTKRHTDPGFLTVLLQDGMGGLQVLVDRKTWVDVPPVPGAFIINIGDLLQLVSNDQFRSVEHRVLANKSKDTARVSVASFFNTDMERSTRLYGPITDGRNPPIYRSVTARDFIATFNRIGLDGRSLDHYRLDQDTPAHAVEGSE
B7: DCXR (Homo sapiens, UniProt Q7Z4W1); chain MELFLAGRRVLVTGAGKGIGRGTVQALHATGARVVAVSRTQADLDSLVRECPGIEPVCVDLGDWEATERALGSVGPVDLLVNNAAVALLQPFLEVTKEAFDRSFEVNLRAVIQVSQIVARGLIARGVPGAIVNVSSQCSQRAVTNHSVYCSTKGALDMLTKVMALELGPHKIRVNAVNPTVVMTSMGQATWSDPHKAKTMLNRIPLGKFAEVEHVVNAILFLLSDRSGMTTGSTLPVEGGFWAC
B8: CoA persulfide reductase CDR-RHD (Enterococcus faecalis, UniProt A0ACD6TF65); chain MKIVIIGGVAGGMSAATRLRRLMEDAEIVVMEKGPFVSFANCGLPYYVSGEIAEREQLLVQTPEALKARFNLDVRPHHEVVAIDPIEKVITVKHETEILTEHYDKLILSPGAKPFVPPITGLAEAKNVFSLRNVPDLDQIMTALTPETKRAVVIGAGFIGLEMAENLQKRGLEVTLVEKAPHVLPPLDEEMAAFVKAELSKNNVQVITGQSAVAFEEEGQVIRLEDGQTLASDLTILSVGVQPENTLAVEAGVATGLRGGIVVDEHYQTNQPDIYAVGDAIVVKQQITQEDALISLASPANRQGRQVADVIAGLERKNQGSIGTAIVRVFDLTAASTGLSERAAKAAGLTTAVVHISGKDHAGYYPGATDLQLKLVFHPTTGEIYGAQGIGAKGVDKRIDILATAIKGQLTIFDLPELEFTYAPPFGSAKDPVNMLGYAAMNLVEGLSENVQWYELSNELAKGAVLLDVRNPAERANGQFKNAVSIPLNELRERLEELDKSTEYIVSCHSGLRSYIAERMLKQAGISAKNLDGAFALYRMVKPEELENV
B9: Tat (Mus musculus, UniProt Q8QZR1); chain WNVRPSDMSNKTFNPIRAIVDNMKVKPNPNKTVISLSIGDPTVFGNLPTDPEVTQAMKDALDSGKYNGYAPSIGYLSSREEVASYYHCPEAPLEAKDVILTSGCSQAIELCLAVLANPGQNILIPRPGFSLYRTLAESMGIEVKLYNLLPEKSWEIDLKQLESLIDEKTACLVVNNPSNPCGSVFSKRHLQKILAVAERQCVPILADEIYGDMVFSDCKYEPMATLSTNVPILSCGGLAKRWLVPGWRLGWILIHDRRDIFGNEIRDGLVKLSQRILGPCTIVQGALKSILQRTPQEFYQDTLSFLKSNADLCYGALSAIPGLQPVRPSGAMYLMVGIEMEHFPEFENDVEFTERLIAEQSVHCLPATCFEYPNFFRVVITVPEVMMLEACSRIQEFCEQHY
B10: LYPLA1 (Homo sapiens, UniProt O75608); chain MCGNNMSTPLPAIVPAARKATAAVIFLHGLGDTGHGWAEAFAGIRSSHIKYICPHAPVRPVTLNMNVAMPSWFDIIGLSPDSQEDESGIKQAAENIKALIDQEVKNGIPSNRIILGGFSQGGALSLYTALTTQQKLAGVTALSCWLPLRASFPQGPIGGANRDISILQCHGDCDPLVPLMFGSLTVEKLKTLVNPANVTFKTYEGMMHSSCQQEMMDVKQFIDKLLPPID
B11: Cop6 (Coprinopsis cinerea, UniProt A8NCK5); chain MPAALPYNVSRDNKWDIKKIIQDFFKRCDVPYQVIPYDTELWNACLKRAKEKGYPVEPDSPMSLYRSFKVGVVITRTSYGHIQDYEILIWVATFTAFVTYADDAFQEDIQHLHSFARTFLQNEKHEHPVLEAFAQFLRESSIRFSHFVANTVVSSALRFMMSIALEFEGQNVSVSTEAREYPGYIRILSGLSDIYALFAFPMDLPRSTYIQAFPEQIDYINGTNDLLSFYKEELDCETVNFISAAATSQQVSKLEVLRNAAEKAAYSYDVVVNVLKPYPEALAAWKSFARGFCYFHTSSPRYRLGEMFHDFEHDLVCKCASCTEI
B12: UGT84B1 (Arabidopsis thaliana, UniProt O22182); chain MGSSEGQETHVLMVTLPFQGHINPMLKLAKHLSLSSKNLHINLATIESARDLLSTVEKPRYPVDLVFFSDGLPKEDPKAPETLLKSLNKVGAMNLSKIIEEKRYSCIISSPFTPWVPAVAASHNISCAILWIQACGAYSVYYRYYMKTNSFPDLEDLNQTVELPALPLLEVRDLPSFMLPSGGAHFYNLMAEFADCLRYVKWVLVNSFYELESEIIESMADLKPVIPIGPLVSPFLLGDGEEETLDGKNLDFCKSDDCCMEWLDKQARSSVVYISFGSMLETLENQVETIAKALKNRGLPFLWVIRPKEKAQNVAVLQEMVKEGQGVVLEWSPQEKILSHEAISCFVTHCGWNSTMETVVAGVPVVAYPSWTDQPIDARLLVDVFGIGVRMRNDSVDGELKVEEVERCIEAVTEGPAAVDIRRRAAELKRVARLALAPGGSSTRNLDLFISDITIA
Chain of UniProt P69848 (whole entry, looked up): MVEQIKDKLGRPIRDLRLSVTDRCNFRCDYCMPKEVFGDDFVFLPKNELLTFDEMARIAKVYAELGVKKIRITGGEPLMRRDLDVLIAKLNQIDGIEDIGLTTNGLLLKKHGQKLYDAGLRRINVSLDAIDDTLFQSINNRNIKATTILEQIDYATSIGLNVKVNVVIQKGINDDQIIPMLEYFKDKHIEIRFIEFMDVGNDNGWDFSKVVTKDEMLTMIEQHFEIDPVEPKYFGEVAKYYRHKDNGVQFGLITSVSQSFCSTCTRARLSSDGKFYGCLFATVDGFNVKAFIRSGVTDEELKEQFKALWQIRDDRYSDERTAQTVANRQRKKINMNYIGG
Chain of UniProt P45370 (whole entry, looked up): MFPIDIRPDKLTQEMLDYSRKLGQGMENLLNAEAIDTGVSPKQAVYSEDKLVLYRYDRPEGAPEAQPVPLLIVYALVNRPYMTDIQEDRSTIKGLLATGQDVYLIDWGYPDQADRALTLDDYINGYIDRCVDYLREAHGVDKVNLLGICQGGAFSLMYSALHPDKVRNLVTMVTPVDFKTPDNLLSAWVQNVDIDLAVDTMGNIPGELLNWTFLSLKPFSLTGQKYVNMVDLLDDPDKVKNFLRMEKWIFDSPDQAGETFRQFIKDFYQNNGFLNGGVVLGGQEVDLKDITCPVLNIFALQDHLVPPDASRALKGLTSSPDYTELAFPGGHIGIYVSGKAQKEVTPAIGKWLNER

B1 (alanine racemase H125A) — kcat (C[C@@H](N)C(=O)O; pH 9, room temperature, added: NAD+ 10 mM): 440 s⁻¹
B2 (enzyme) — kcat (NC(=O)C1=CN([C@@H]2O[C@H](COP(=O)(O)OP(=O)(O)OC[C@H]3O[C@@H](n4cnc5c(N)ncnc54)[C@H](O)[C@@H]3O)[C@@H](O)[C@H]2O)C=CC1; pH 7.5, 37 °C, per site): 648 ± 28 s⁻¹
protein (UniProt M4ZR24) — kcat (Cc1cn([C@H]2C[C@H](O)[C@@H](CO)O2)c(=O)[nH]c1=O; phosphorolysis, single substrate, added: phosphate): 0.0483 ± 0.00333 s⁻¹
protein (Allochromatium vinosum, UniProt P45370) — kcat (CC[C@@H](O)CC(=O)SCCNC(=O)CCNC(=O)[C@H](O)C(C)(C)COP(=O)(O)OP(=O)(O)OC[C@H]1O[C@@H](n2cnc3c(N)ncnc32)[C@H](O)[C@@H]1OP(=O)(O)O; pH 7.8, 30 °C): 98.1 s⁻¹
enzyme (Staphylococcus aureus, UniProt P69848) — kcat (Nc1nc2c(ncn2[C@@H]2O[C@H](COP(=O)(O)OP(=O)(O)OP(=O)(O)O)[C@@H](O)[C@H]2O)c(=O)[nH]1; pH 7.6, 25 °C): 0.0007 ± 8.33e-05 s⁻¹
B3 (sacB S173T) — kcat (OC[C@H]1O[C@@](CO)(O[C@H]2O[C@H](CO)[C@@H](O)[C@H](O)[C@H]2O)[C@@H](O)[C@@H]1O; pH 6.6): 108 ± 4.2 s⁻¹
B4 (nicotinamidase) — kcat (NC(=O)c1cccnc1; pH 7.3, progress curve analysis): 2.1 ± 0.1 s⁻¹
B5 (ybiA) — kcat (Nc1c(N[C@@H]2O[C@H](COP(=O)(O)O)[C@@H](O)[C@H]2O)[nH]c(=O)[nH]c1=O; pH 8, 22 °C, substrate not purified): 0.8 ± 0.1 s⁻¹
B6 (enzyme) — kcat (O=C1[C@@H](O[C@@H]2O[C@H](CO)[C@@H](O)[C@H](O)[C@H]2O)Oc2ccccc2N1O; pH 7.2, 30 °C): 0.715 s⁻¹
B7 (DCXR) — kcat (CC(=O)C(C)=O; pH 7, added: NADPH 200 µM): 5.8 s⁻¹
B8 — kcat (N[C@@H](CSS)C(=O)O; pH 8, 25 °C, Km not accurate, added: FAD 100 nM, NADH 100 µM): 0.11 ± 0.11 s⁻¹
B9 (Tat) — kcat (N[C@@H](CCC(=O)O)C(=O)O; pH 7, 38 °C, added: PLP): 9.33 ± 0.667 s⁻¹
B10 (LYPLA1) — kcat (CN(C)c1ccc(/N=N/c2ccc(C(=O)NCCCn3cc(CCCCCCCCCCCCCCCC(=O)SC[C@H](NC(=O)c4cc5ccc(O)cc5oc4=O)C(=O)N4CCOCC4)nn3)cc2)cc1; pH 7.4, 37 °C): 0.046 ± 0.004 s⁻¹
B11 (Cop6) — kcat (CC(C)=CCC/C(C)=C/COP(=O)(O)OP(=O)(O)O; pH 8, 30 °C, added: MgCl2 10 mM): 0.035 ± 0.003 s⁻¹
alanine aminopeptidase (Neisseria meningitidis, UniProt Q9JYV4) — kcat (CC[C@H](N)C(=O)Nc1ccc2c(CC(N)=O)cc(=O)oc2c1; pH 7.5, 37 °C): 13.8 ± 0.1 s⁻¹
B12 (UGT84B1) — kcat (O=C(O)Cc1c[nH]c2ccccc12; pH 7.5, 30 °C, added: UDP-glucose 4 mM, MgSO4 2.5 mM): 0.00167 ± 0.000167 s⁻¹

Some of these lines once more:
B5 (ybiA) — kcat (Nc1c(N[C@@H]2O[C@H](COP(=O)(O)O)[C@@H](O)[C@H]2O)[nH]c(=O)[nH]c1=O; pH 8, 22 °C, substrate not purified): 0.8 ± 0.1 s⁻¹
B10 (LYPLA1) — kcat (CN(C)c1ccc(/N=N/c2ccc(C(=O)NCCCn3cc(CCCCCCCCCCCCCCCC(=O)SC[C@H](NC(=O)c4cc5ccc(O)cc5oc4=O)C(=O)N4CCOCC4)nn3)cc2)cc1; pH 7.4, 37 °C): 0.046 ± 0.004 s⁻¹
B12 (UGT84B1) — kcat (O=C(O)Cc1c[nH]c2ccccc12; pH 7.5, 30 °C, added: UDP-glucose 4 mM, MgSO4 2.5 mM): 0.00167 ± 0.000167 s⁻¹
